# Results from different studies.
# Chain of UniProt Q15208 (whole entry, looked up): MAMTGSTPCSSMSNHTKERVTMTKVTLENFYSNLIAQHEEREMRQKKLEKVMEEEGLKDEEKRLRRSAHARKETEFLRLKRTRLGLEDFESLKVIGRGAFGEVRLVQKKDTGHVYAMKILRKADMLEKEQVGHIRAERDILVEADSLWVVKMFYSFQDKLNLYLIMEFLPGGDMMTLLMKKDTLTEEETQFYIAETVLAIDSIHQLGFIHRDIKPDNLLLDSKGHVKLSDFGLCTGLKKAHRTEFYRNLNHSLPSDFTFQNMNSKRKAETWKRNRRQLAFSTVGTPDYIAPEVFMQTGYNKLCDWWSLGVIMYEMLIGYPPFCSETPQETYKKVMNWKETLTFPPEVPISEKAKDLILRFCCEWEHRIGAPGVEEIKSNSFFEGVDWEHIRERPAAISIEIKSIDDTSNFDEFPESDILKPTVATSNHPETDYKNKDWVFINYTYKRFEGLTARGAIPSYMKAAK
# Chain of UniProt Q16566 (whole entry, looked up): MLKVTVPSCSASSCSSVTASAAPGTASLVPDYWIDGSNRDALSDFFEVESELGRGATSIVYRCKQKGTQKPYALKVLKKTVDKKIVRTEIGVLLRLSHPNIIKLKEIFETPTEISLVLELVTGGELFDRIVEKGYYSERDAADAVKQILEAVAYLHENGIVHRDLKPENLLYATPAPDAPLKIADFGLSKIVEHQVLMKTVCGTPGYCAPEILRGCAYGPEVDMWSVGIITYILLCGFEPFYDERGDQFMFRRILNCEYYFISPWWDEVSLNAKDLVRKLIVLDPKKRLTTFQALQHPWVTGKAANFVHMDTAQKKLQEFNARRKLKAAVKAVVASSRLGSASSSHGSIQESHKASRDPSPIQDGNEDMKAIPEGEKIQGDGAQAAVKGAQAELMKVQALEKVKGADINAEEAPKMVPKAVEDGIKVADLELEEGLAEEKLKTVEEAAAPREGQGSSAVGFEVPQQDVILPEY
# Chain of UniProt Q04759 (whole entry, looked up): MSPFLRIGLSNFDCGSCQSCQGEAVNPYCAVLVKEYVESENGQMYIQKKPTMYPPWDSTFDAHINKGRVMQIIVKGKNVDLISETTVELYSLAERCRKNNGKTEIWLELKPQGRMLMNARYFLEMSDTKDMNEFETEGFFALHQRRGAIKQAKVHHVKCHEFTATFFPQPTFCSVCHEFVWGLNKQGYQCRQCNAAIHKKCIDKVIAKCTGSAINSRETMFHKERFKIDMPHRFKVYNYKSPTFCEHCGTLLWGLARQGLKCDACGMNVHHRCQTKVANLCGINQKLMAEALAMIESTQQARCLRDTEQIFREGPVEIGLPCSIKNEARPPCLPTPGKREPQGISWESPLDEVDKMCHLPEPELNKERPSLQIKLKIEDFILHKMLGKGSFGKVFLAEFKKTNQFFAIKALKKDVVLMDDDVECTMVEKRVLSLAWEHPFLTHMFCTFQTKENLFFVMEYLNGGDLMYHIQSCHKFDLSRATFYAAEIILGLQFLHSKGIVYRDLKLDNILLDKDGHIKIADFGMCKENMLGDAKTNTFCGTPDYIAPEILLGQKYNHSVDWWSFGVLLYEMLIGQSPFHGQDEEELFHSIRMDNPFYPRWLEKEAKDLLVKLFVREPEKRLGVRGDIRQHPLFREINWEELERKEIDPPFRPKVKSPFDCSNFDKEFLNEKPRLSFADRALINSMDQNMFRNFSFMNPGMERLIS
# Chain of UniProt Q16659 (whole entry, looked up): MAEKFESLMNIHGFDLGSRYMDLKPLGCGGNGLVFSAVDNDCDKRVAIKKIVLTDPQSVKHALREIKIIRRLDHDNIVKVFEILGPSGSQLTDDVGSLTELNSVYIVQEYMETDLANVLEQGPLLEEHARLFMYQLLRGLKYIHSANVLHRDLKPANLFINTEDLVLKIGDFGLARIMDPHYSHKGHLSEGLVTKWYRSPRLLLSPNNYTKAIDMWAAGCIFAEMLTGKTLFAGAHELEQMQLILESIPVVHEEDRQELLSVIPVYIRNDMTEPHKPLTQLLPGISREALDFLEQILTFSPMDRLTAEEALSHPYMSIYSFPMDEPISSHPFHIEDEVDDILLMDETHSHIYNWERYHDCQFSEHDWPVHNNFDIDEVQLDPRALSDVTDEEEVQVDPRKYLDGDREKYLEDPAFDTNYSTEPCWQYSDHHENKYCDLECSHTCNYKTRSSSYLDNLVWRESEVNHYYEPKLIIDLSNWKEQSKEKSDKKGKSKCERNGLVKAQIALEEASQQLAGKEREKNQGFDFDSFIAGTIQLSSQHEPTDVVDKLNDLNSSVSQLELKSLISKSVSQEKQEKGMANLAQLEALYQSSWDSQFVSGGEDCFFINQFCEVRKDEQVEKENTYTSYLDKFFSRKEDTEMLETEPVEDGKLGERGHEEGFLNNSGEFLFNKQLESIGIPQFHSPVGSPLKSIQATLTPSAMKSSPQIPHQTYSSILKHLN
Compound,tested on,assay,conditions,measurement,value
CCOc1ccc2c(C)c(CC)c(=O)oc2c1C,MDA-MB-231,"cell growth or viability, MTT",500 µg/mL,viability,7.09%
O=C1CCCCC1=C1Sc2nc3ccc(S(=O)(=O)N4CCCC4)cc3nc2S1,MDA-MB-231,"cell growth or viability, MTT","12.5 µM, 24 h",viability,34%
O=C(Nc1ccc(Cl)cc1)Nc1ccc(Oc2nc3ccccc3n3cnnc23)cc1,MDA-MB-231,"cell growth or viability, MTT","12.5 µM, 24 h",viability,88.7%
CNc1ncc2c(/C=C/C(=O)N3CCC(OC)CC3)nn(Cc3cccc(C(F)(F)F)c3)c2n1,"CAMK4 (Homo sapiens, UniProt Q16566)","enzyme activity, inhibitor, radiometric",1 µM,remaining activity,94%
NC(=O)C1CCCN1C(=O)Nc1ccccc1/N=c1\cc(-c2ccc3c(c2)OCCO3)oc2cc(F)ccc12 (stereo not drawn),MDA-MB-231,"cell growth or viability, CCK-8",1 µM,inhibition,8.63%
C=CC(=O)N1CCC(COCC(=O)N2CCN(c3nc(-c4cnc(N)nc4C(F)F)nc(N4CCOC[C@@H]4C)n3)CC2)CC1,"STK38 (Homo sapiens, UniProt Q15208)","binding, competition with immobilised ligand",1 µM,remaining binding,92%
COc1cc(-c2cncc3c2CN(C)Cc2cc(N4CCNCC4)ccc2-3)cc(OC)c1OC,"PRKCQ (Homo sapiens, UniProt Q04759)","enzyme activity, inhibitor",1 µM,remaining activity,117%
NCCC(=O)Nc1ccccc1/N=c1\cc(-c2ccc3nc(N)oc3c2)oc2ccc(O)cc12,MDA-MB-231,"cell growth or viability, CCK-8",1 µM,inhibition,30.8%
O=C(Nc1ccccc1)Nc1ccc(Oc2nc3ccccc3n3cnnc23)cc1,MDA-MB-231,"cell growth or viability, MTT","6.25 µM, 24 h",viability,99.5%
CCOC(=O)C(C(C)=O)=C1Sc2nc3ccc(S(=O)(=O)N4CCCC4)cc3nc2S1,MDA-MB-231,"cell growth or viability, MTT","6.25 µM, 24 h",viability,32.6%
CCCOc1ccc2c(C)c(CC)c(=O)oc2c1C,MDA-MB-231,"cell growth or viability, MTT",500 µg/mL,viability,12.2%
CCCCC(=O)Nc1ccc(-c2ccc3ncn(CCC)c(=O)c3c2)cn1,"MAPK6 (Homo sapiens, UniProt Q16659)","binding, competition with immobilised ligand",0.5 µM,remaining binding,100%

# Repeated from above:
Compound,tested on,assay,conditions,measurement,value
CNc1ncc2c(/C=C/C(=O)N3CCC(OC)CC3)nn(Cc3cccc(C(F)(F)F)c3)c2n1,"CAMK4 (Homo sapiens, UniProt Q16566)","enzyme activity, inhibitor, radiometric",1 µM,remaining activity,94%
NC(=O)C1CCCN1C(=O)Nc1ccccc1/N=c1\cc(-c2ccc3c(c2)OCCO3)oc2cc(F)ccc12 (stereo not drawn),MDA-MB-231,"cell growth or viability, CCK-8",1 µM,inhibition,8.63%
